Measurements of several laboratories.
Lines come from different studies, so protocols differ. “And” joins repeats or separate records; there may be more than shown.
Target: Calcium/calmodulin-dependent protein kinase type II subunit beta (CAMK2B, Homo sapiens, UniProt Q13554)

`COc1c(OCCCN2CCOCC2)ccc2c1N=C(NC(=O)c1cnc(N)nc1)N1CCN=C21` gave a remaining activity of 104% (kinase activity, inhibitor; 1 µM; baseline: untreated control).
For `Nc1ncc(-c2cc(-c3cnn(CC(F)(F)F)c3)ncc2F)nc1C(=O)NC1CNCC(F)C1` (stereo not shown), the remaining activity was 92.6% (enzyme activity; 1 µM; baseline: DMSO control).
`Nc1ncc2c(n1)-c1c([nH]c3ccc(C4=CCOCC4)cc13)CCC2` gave a remaining binding of 92% (binding, competition with immobilised ligand; 1 µM).
`N[C@H]1CC[C@H](Nc2nccc(-c3cccnc3Oc3ccc(NC(=O)NC4CC4)c4ccccc34)n2)CC1`: “log2 LFQ intensity” 23.9 and 24.2 and 24.3 and 24 (kinobead competition pulldown; HEK293/HCT116 lysate mixture; 10 µM, 1 h, 4 °C; lower = stronger competition).
The remaining binding of `CNC1C[S+]2CC[S+]3CC[S+](C1)[Ru-4]321([N]=C=S)[n]2c3ccc(OC)cc3c3c4c(c5cc(F)c[n+]1c5c32)C(=O)NC4=O` (stereo not shown) is reported as 71% (KinomeScan; 0.1 µM; baseline: untreated).
The remaining binding of `C=CC(=O)N1CCc2ccc(-n3c(=O)ccc4cnc5ccc(-c6cnn(C)c6)cc5c43)cc21` is reported as 91% (KINOMEscan; 1 µM; baseline: DMSO control).
With `C=CC(=O)Nc1cccc(-c2cnc3[nH]cc(C(=O)NC(C)(C)C)c3n2)c1` the inhibition was 3% and 0% (kinase activity; 0.1 µM).
`O=c1c(-c2ccc(Cl)c(CN3CCOCC3)c2)coc2cc(O)ccc12` has a remaining activity of 108% (enzyme activity, inhibitor; 1 µM).
`CN1CCN(Cc2ccc(-c3ccc(CO[C@H]4CCC[C@@H]4NC(=O)c4cc(-c5cnn(C)c5)cnc4N)cc3)cc2)CC1` gave an inhibition of 3% (enzyme activity, inhibitor; 0.1 µM).
The inhibition of `CCn1cc(C(=O)O)c(=O)c2c(N)c(F)c(NC3CCCCC3)cc21` is reported as -9.5% (kinase activity; 0.1 µM, with: ATP at Km).
With `COc1ccc(NC(=O)Nc2ccc3c(c2)C(=O)N(C(C)CO)CC(C)C(CN(C)Cc2ccc4c(c2)OCO4)O3)cc1` (stereo not shown) the remaining activity was 107% (kinase activity, KinaseProfiler; 0.03 µM, species human; baseline: control).
The inhibition of `CN1CC[C@@H](COc2cnc(C#N)cc2-c2ccn3nc(NC(=O)C4CC4)cc3c2)C1` is reported as -1% (enzyme activity, inhibitor; 1 µM).
The inhibition of `NC(=O)[C@@H](O)C[C@H]1CCc2sc3ncnc(O[C@H]4CC[C@H](N5CCOCC5)CC4)c3c21` is reported as 28% (enzyme activity, inhibitor; 10 µM).
The remaining binding of `Cc1ccc(-c2c(/C=C(\C#N)C(=O)NC(C)C)n(CCCO)c3ncnc(N)c23)cc1` is reported as 94% (cell-free assay, competition with immobilised ligand; 1 µM).
With `COc1cc(Nc2nc(C)cc(-c3cnn4nc(OC)ccc34)n2)cc(C(F)(F)F)c1` the remaining activity was 93% (inhibitor; 1 µM; baseline: control).
`Cc1cccc(O[C@H]2CCC[C@@H](C(C)CNCc3ccncc3)C2)c1` (relative stereo) has an inhibition of 5% (enzyme activity, inhibitor; 10 µM).
